{"data": "Experimental data from different studies", "TDP1": "Tyrosyl-DNA phosphodiesterase 1 (TDP1, Homo sapiens, UniProt Q9NUW8)", "note": "Numbers after ± are the reported error.", "sequence of UniProt Q9NUW8 (whole entry, looked up)": "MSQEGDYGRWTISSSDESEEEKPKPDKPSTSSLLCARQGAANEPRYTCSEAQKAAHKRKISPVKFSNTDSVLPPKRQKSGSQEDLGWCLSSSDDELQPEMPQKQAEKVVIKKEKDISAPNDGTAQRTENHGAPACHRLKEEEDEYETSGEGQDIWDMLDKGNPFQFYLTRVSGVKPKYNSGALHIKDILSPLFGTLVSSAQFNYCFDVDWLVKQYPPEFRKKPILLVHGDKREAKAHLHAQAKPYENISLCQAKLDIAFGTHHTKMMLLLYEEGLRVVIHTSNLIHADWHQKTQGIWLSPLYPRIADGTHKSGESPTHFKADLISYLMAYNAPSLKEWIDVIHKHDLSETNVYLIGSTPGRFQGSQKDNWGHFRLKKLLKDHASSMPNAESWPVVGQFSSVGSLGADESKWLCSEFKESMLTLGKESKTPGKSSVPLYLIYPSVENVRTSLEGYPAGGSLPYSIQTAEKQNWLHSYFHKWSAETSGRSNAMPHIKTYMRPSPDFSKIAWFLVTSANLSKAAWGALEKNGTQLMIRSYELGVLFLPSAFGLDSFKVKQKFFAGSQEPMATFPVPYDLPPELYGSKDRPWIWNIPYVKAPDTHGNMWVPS", "sequence of UniProt Q13428 (whole entry, looked up)": "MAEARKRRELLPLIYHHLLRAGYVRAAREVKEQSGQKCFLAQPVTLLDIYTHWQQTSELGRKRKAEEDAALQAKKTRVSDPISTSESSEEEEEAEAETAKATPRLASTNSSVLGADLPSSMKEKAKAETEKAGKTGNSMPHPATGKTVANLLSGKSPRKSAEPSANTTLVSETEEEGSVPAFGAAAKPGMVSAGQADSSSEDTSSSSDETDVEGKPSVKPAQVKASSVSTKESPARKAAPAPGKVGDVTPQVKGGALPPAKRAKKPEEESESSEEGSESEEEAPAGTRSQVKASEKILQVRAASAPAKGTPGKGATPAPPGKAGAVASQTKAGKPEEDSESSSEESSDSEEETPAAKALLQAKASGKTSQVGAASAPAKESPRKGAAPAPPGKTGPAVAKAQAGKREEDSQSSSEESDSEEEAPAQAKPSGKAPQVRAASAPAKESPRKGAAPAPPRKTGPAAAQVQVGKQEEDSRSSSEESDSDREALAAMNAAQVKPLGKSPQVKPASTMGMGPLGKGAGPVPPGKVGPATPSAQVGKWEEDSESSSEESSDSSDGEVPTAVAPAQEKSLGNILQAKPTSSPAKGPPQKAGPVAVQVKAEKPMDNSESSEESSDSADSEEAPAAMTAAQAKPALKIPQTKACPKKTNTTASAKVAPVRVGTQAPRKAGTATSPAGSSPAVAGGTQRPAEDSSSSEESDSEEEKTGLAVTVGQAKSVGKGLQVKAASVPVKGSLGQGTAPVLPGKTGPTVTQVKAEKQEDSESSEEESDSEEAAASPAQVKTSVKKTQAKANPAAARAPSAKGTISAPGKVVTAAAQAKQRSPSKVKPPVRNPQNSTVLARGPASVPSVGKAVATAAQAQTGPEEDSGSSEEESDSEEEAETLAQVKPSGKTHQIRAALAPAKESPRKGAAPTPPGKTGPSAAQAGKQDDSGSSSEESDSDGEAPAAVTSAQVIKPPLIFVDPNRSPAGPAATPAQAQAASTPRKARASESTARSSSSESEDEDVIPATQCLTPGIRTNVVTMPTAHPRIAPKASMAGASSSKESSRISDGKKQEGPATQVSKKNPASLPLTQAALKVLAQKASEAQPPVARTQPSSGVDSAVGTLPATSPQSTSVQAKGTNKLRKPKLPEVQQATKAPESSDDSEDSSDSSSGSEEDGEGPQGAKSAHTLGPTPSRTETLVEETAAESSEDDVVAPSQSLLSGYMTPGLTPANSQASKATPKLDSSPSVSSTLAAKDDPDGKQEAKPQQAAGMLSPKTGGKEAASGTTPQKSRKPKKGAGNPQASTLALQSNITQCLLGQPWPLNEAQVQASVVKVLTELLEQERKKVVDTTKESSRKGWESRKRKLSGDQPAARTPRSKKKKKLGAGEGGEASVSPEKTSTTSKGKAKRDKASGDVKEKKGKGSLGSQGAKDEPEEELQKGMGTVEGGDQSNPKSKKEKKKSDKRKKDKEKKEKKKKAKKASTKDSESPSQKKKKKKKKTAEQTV"}
{"SMILES": "CN(C(=O)C(C)(C)c1cc(C(F)(F)F)cc(C(F)(F)F)c1)c1cnc(N2C[C@H]3COC(O)CN3C[C@H]2CO)cc1-c1ccc(F)cc1CO (stereo partly drawn)", "test system": "human liver microsomes", "conditions": "substrate depletion", "quantity": "Vmax", "result": "251 pmol/min/mg"}
{"SMILES": "COC(=O)c1c(NC(=O)Cn2cnc([N+](=O)[O-])n2)sc2c1CCC(C)C2 (stereo not drawn)", "test": "reporter mRNA translation, inhibitor, refers to: Renilla luciferase mRNA", "test system": "Trypanosoma cruzi cell extract", "conditions": "concentration not given", "scale": "relative to: positive and negative controls", "quantity": "translation activity", "result": "113%"}
{"SMILES": "[2H]C([2H])([18F])Oc1cc(C(=O)OCC2CCN(CCCC)CC2)ccc1N", "test": "PET SRTM", "test system": "rhesus monkey, midbrain", "conditions": "baseline, unit not given", "scale": "relative to: cerebellum", "quantity": "BPND", "result": "0.28 ± 0.13"}
{"SMILES": "CC(=O)ON=Cc1c(C)c(C=NOCc2ccc(-c3nc4cc(-c5ccccc5)ccn4c3Nc3ccc(C(=O)O)cc3)cc2)n2ccccc12", "target or system": "TDP1", "test": "enzyme activity, inhibitor", "conditions": "100 µM", "quantity": "inhibition", "result": "96.6%"}
{"SMILES": "CN(C)CCCCCN(C)Cc1cc2ccccc2o1.Cl", "test": "reporter mRNA translation, inhibitor, refers to: Renilla luciferase mRNA", "test system": "Trypanosoma cruzi cell extract", "conditions": "concentration not given", "scale": "relative to: positive and negative controls", "quantity": "translation activity", "result": "112%"}
{"SMILES": "O=C(O)c1ccc(Nc2c(-c3ccccc3)nc3ccc(CON=Cc4ccc(I)c(O)c4)cn23)cc1", "target or system": "TDP1", "test": "enzyme activity, inhibitor", "conditions": "100 µM, unpurified compound", "quantity": "inhibition", "result": "87.6%"}
{"SMILES": "Cc1cc(F)ccc1-c1cc(N2C[C@H]3COC(O)CN3C[C@H]2CO)ncc1N(C)C(=O)C(C)(C)c1cc(C(F)(F)F)cc(C(F)(F)F)c1 (stereo partly drawn)", "test system": "human liver microsomes", "conditions": "substrate depletion", "quantity": "Vmax", "result": "76 pmol/min/mg"}
{"SMILES": "CCCCCC(O)/C=C/C=O (stereo not drawn)", "target or system": "Treacle protein (Homo sapiens, UniProt Q13428)", "test": "competitive isoTOP-ABPP, refers to: TCOF1 cysteine peptide", "test system": "Ramos soluble proteome", "conditions": "100 µM, together with: iodoacetamide probe", "scale": "relative to: DMSO over compound-treated, higher = stronger cysteine blockade", "quantity": "isoTOP-ABPP competition ratio", "result": 1.7}
{"SMILES": "O=C(O)c1ccc(Nc2c(-c3ccc(CON=Cc4ccc(OC5CCCCC5)nc4)cc3)nc3cc(-c4ccccc4)ccn23)cc1", "target or system": "TDP1", "test": "enzyme activity, inhibitor", "conditions": "100 µM, unpurified compound", "quantity": "inhibition", "result": "63.4%"}
{"note": "A few entries again:"}
{"SMILES": "CCCCCC(O)/C=C/C=O (stereo not drawn)", "target or system": "Treacle protein (Homo sapiens, UniProt Q13428)", "test": "competitive isoTOP-ABPP, refers to: TCOF1 cysteine peptide", "test system": "Ramos soluble proteome", "conditions": "100 µM, together with: iodoacetamide probe", "scale": "relative to: DMSO over compound-treated, higher = stronger cysteine blockade", "quantity": "isoTOP-ABPP competition ratio", "result": 1.7}
